Measurements of several laboratories.
Numbered parts are unrelated; each lists some results of a single study. Values joined by “and” are separate records of one study, mostly repeats; a detail may differ.
Sequence of UniProt P28335 (whole entry, looked up): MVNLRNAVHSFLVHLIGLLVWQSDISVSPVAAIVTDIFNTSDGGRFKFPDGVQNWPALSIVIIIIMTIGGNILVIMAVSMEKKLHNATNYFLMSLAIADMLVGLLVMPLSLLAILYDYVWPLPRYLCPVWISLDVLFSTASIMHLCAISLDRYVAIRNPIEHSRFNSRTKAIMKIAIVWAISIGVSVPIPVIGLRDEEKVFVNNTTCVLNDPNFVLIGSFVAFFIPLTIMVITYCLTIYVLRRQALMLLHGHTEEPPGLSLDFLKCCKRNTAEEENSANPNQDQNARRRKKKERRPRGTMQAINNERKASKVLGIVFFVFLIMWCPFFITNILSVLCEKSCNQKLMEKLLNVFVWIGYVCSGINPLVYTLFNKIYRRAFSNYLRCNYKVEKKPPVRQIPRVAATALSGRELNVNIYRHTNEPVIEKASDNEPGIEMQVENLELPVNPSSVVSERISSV
Sequence of UniProt P9WI81 (whole entry, looked up): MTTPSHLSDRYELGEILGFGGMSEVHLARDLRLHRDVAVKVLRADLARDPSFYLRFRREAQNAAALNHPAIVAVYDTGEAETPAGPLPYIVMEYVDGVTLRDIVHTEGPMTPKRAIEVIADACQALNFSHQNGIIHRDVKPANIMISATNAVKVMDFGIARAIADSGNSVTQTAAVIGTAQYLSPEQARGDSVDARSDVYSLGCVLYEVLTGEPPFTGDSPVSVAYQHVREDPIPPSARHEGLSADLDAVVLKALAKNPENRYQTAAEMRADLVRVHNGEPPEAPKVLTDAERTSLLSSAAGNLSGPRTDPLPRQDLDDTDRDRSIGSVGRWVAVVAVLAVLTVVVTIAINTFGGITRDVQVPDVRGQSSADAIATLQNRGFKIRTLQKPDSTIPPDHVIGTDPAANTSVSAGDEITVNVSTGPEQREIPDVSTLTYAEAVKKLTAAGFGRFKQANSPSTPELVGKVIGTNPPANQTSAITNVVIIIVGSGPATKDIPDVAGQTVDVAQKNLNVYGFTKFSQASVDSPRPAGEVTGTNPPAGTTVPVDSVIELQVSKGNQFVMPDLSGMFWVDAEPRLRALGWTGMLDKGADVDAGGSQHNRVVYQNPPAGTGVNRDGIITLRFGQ

Study 1
SMILES: CC(C)S(=O)(=O)c1cc2c(Nc3ccc4sc(C5CCCC5)nc4c3)ccnc2cc1OCCO
Cell line: HT-29
Effect on: necroptosis
Technique: CCK-8
With: TNF-α, Smac mimetic, z-VAD
| concentration | cell survival |
| --- | --- |
| 1.111 µM | 98.1% and 101% and 97.5% |
| 0.00152 µM | 23.4% and 23.8% and 23.7% |
| 0.014 µM | 25.8% and 26.6% and 26.9% |
| 0.37 µM | 89.6% and 84.1% and 88% |
| 0.123 µM | 52% and 45.3% and 47.3% |

Study 2
Target: Beta-1 adrenergic receptor (ADRB1, Homo sapiens, UniProt P08588)
Sequence of UniProt P08588 (whole entry, looked up): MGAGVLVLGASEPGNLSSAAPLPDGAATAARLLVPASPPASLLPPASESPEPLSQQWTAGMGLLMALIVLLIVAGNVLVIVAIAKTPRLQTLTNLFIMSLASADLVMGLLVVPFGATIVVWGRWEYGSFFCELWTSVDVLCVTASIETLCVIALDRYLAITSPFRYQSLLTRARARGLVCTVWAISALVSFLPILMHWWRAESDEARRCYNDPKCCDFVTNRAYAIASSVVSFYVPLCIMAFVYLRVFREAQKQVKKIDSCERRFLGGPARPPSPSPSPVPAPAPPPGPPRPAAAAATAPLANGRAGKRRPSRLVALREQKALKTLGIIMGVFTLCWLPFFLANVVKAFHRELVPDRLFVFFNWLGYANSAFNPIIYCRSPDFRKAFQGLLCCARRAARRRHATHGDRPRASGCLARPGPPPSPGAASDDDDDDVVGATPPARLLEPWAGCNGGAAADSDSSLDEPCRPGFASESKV
Action: agonist
| SMILES | Emax |
| --- | --- |
| CC(C)(C)NCC(O)c1ccccc1F (stereo not shown) | 93.2% |
| CN[C@@H](C)[C@H](O)c1ccccc1 | 87.2% |
| CN(c1nc2ccccc2s1)C1CCN(C[C@H](O)COc2ccc(F)c(F)c2)CC1 | 52% |
| C[C@@H](N)[C@@H](O)c1ccccc1 (racemic) | 107% |

Other studies, line by line
| SMILES | target or system | test | conditions | scale | endpoint | result |
| --- | --- | --- | --- | --- | --- | --- |
| CN[C@@H]1C[C@H]2O[C@@](C)([C@@H]1OC)n1c3ccccc3c3c4c(c5c6ccccc6n2c5c31)C(=O)NC4 | normal-adjacent epithelium patient-derived organoids sample F | CellTiter-Glo | 1 µM | baseline: DMSO | viability | 0.6% |
| CC(C)(C)c1cc(C=C(C#N)C#N)cc(Br)c1O | HH | – | 2 µM, 48 h | baseline: untreated | viability | 116% |
| CCCOc1ccc([C@@H]2[C@@H](C(=O)O)[C@H](c3ccc4c(c3)OCO4)CN2CC(=O)Nc2c(CC)cccc2CC)cc1 | pknB (Mycobacterium tuberculosis, UniProt P9WI81) | cell-free assay, competition with immobilised ligand | 1 µM | – | remaining binding | 98% |
| CC(C)(O)c1cncc(-c2nc3ccc(F)cc3n2C2CC2)c1 | HTR2C (Homo sapiens, UniProt P28335) | binding, radioligand binding | 10 µM | – | inhibition | 100% |

For quick reference, copied from above (other studies, line by line):
| SMILES | target or system | test | conditions | scale | endpoint | result |
| --- | --- | --- | --- | --- | --- | --- |
| CCCOc1ccc([C@@H]2[C@@H](C(=O)O)[C@H](c3ccc4c(c3)OCO4)CN2CC(=O)Nc2c(CC)cccc2CC)cc1 | pknB (Mycobacterium tuberculosis, UniProt P9WI81) | cell-free assay, competition with immobilised ligand | 1 µM | – | remaining binding | 98% |
